Measurements from different studies.
Parts stem from different laboratories: compare values within a part only.

Series 1 — method: RNA Bind-n-Seq; molecule type: RNA; sample: in vitro; concentration: 365 nM; reference: no-protein control; reading: higher = stronger binding
Target: RNA binding protein fox-1 homolog 2, RRM domain, GST-SBP tag (RBFOX2, Homo sapiens, UniProt O43251-10, residues 100-194)
Notes: natural RNA segment, single round, ends assumed
Target sequence (chain): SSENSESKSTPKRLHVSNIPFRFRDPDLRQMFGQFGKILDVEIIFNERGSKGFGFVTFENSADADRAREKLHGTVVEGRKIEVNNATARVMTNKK
Oligonucleotide	RBNS enrichment (R)
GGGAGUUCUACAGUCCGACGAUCGAAAAAAAGAAAAAUAUAUUGUCCAUACUGUAAAUAAGUGUAUGCUUAUUUAUUUGGGGGGAAAACUAUACAUUAAAGGACCUUUGUCCUAAAGCUCUCUCCCAGGCCACUGGAAUUCUCGGGUGCCAA	0.368
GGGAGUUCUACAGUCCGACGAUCUACUUAUGCAUGCUAAAUUAUUAUUUAGCUUUCCCAUCCCCCAGGGUGGAGAUGGAAUGUAAAAUAAUUGGUUUUUUUACUAGAUGAGAGUGAGGGGGGGGGAGAAACACUGGAAUUCUCGGGUGCCAA	10.9
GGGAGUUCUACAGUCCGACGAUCACAAACCAGCUGCCAGCUUCUGGCUGCAAAACUGCCUGGUGAAAUUGACUUGCUUGGUUUCAUUCACCAAACCAACCCAAGUCGUGUCAUUCUUGCCUAUUAACAUCUGAUGGAAUUCUCGGGUGCCAA	0.305
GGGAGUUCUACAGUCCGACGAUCCUGCUGCACCAACCCAGCCGCUGCCCGGCGCCCUCUGUCCUGACUUCAGGGGCUGCCCGCUCCCAGUGUCUUCCUGUGGGGGAAGAGCACAGCCCUCCCGCCCCUUCCCCUGGAAUUCUCGGGUGCCAA	0.913
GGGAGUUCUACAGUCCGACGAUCAGGAUGUGUGUCCUCCCUUGUGGUGGGAGGCAUGAAUUCUGACCCCUGUGACUGUGCAGCCUGACCCCGCAUAUGUUCCUGUGUGUUUGUGUGGUCUCCCCUUGUUUGGGUGGAAUUCUCGGGUGCCAA	0.583
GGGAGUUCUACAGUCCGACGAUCUUUUGAGGAAAAGUCAAAUUCAUUGUUUAUUUUUAUAUUAUUUUUAAGUUAUCUGAACAAAUACUUUUGAAAAAAAAGUUUGUUGUAUAGUCAAAACAAAUCGGUGCCACUGGAAUUCUCGGGUGCCAA	0.68
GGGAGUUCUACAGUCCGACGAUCGACCUAUCCCACGUUUUUGCAUGAAUUUAUAGCAGGAAAAAUCAAGGGAUUUCCUAUGGAAGUCCUGCUUUAUUCCAGGUGAAGGGAAGGAAGUGUAUAUACUUUUGGCAUGGAAUUCUCGGGUGCCAA	3.15
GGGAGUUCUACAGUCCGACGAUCGUCCACGUCUCCCGUGAUUGCCAGUGCUAAUAUGGCUGGGGCUGAGACUUUGCAAGGCCUAAUGCCAAAGGACACAAGGCCUGUGUGGUGUCUGCCACACUCAGCAGGCCUGGAAUUCUCGGGUGCCAA	0.33
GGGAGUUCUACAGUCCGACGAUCUGGGUAUGAGGUGUGCAGGGGGCUGGGUGGCUUUCCUCAGCCCAUUACAAAGAGGGCCCCCCACCCCCCCCACGCGGCAGCCUGGGAGGCUCUGCUGUCCUCUUAAGCCUUGGAAUUCUCGGGUGCCAA	0.216

Series 2 — method: RNA Bind-n-Seq; molecule type: RNA; sample: in vitro; concentration: 1 µM; notes: whole 134-nt RNA, ends assumed; with: 150 mM KCl; reference: input library; reading: higher = stronger binding
Target: Ras GTPase-activating protein-binding protein 1, C-terminal RGG region (G3BP1, Homo sapiens, UniProt Q13283)
Sequence of UniProt Q13283 (whole entry, looked up): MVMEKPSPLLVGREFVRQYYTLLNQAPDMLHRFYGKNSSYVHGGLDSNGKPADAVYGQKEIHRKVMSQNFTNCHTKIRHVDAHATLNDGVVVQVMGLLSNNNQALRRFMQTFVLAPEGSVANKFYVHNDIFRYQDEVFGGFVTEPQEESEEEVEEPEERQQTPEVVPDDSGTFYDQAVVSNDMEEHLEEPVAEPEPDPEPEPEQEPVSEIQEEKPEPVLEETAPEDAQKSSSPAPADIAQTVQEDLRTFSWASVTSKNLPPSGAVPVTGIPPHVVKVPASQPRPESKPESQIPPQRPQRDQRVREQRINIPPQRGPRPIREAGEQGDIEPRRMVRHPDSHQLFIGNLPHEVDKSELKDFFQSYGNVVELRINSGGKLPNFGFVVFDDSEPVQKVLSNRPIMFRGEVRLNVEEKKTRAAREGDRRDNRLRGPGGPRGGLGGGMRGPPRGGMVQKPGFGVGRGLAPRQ
Oligonucleotide	log2 enrichment
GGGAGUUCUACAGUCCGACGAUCAGUCCUGUGCUACACAUCGUAUGUACCGAAUCGUGUGUGUGUGUGUGUGUGUGUGUGUAAAGUAUUAUGUUACGCCGUUCGGAUCUGCACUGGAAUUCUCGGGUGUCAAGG	1.53
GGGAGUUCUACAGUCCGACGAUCGUCCUGUGCUACACAUCGUAUGUACCGAAUCGGGGAGGGGUUUUUUUGGGGUUUGGGGAAAGUAUUAUGUUACGCCGUUCGGAUCUGCACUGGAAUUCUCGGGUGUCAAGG	1.43
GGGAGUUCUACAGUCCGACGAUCUCCUGUGCUACACAUCGUAUGUACCGAAUCAAAGUGUGUGUGUGAAAUGUGUGUGUGAAAAAAGUAUUAUGUUACGCCGUUCGGAUCUGCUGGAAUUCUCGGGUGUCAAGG	0.109
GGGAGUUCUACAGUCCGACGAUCCACAGACAACACGCACCCACACAGACACAGAGGGAAGGGGUUGGGAUGGGGACAGGGUGCACAGCAGGGCGGGGUAGGACCCCGGCCCCUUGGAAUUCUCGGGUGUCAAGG	-1.22
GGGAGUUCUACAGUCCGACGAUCACCAUGCAGGUGGGCAUCUUUGGGAAGUGGGGCAAGGGGAAAAUAGGGAGGGGGGUAACACUUUGGGAACAGGUGGUCCCAGGUCGUUUCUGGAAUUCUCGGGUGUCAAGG	-0.844
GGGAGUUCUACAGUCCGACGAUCCUGUGCUACACAUCGUAUGUACCGAAUCGGGGUUUUUUUGGGGAAAGGGGUUUUUUUGGGGAAAGUAUUAUGUUACGCCGUUCGGAUCUGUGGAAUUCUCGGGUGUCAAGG	-0.0975
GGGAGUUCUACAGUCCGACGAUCAGUCCUGUGCUACACAUCGUAUGUACCGAAUCGGGCCCCCGGCCCCCGGGGCCCCCGGAAAGUAUUAUGUUACGCCGUUCGGAUCUGCACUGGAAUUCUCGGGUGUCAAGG	-1.87
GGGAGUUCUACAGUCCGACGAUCAGUCCUGUGCUACACAUCGUAUGUACCGAAUCGGUUUUUGGUUUUUGGGGUUUUUGGAAAGUAUUAUGUUACGCCGUUCGGAUCUGCACUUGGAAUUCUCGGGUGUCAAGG	-1.41
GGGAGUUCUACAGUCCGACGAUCUCCUGUGCUACACAUCGUAUGUACCGAAUCAAACCCCCAAACCCCCCCAAACCCCCAAAAAAGUAUUAUGUUACGCCGUUCGGAUCUGCAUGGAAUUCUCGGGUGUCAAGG	-0.771
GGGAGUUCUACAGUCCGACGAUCCAAGUCCUGUGCUACACAUCGUAUGUACCGAAUCGGGGUUGGGGUUGGGGUUGGGAAAGUAUUAUGUUACGCCGUUCGGAUCUGCACUUCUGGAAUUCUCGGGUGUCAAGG	2.47

Series 3 — method: universal PBM; molecule type: double-stranded DNA, one strand shown; sample: in vitro; concentration: not given; reading: higher = stronger binding
Target: Sal-like protein 4, full length isoform B (SALL4, Homo sapiens, UniProt Q9UJQ4-2, residues 1-616)
Notes: 8-mer, flanks averaged, mean of replicates
Oligonucleotide	E-score
CTGCATCC	-0.209
AACACGGT	-0.118
GAGGAAGA	0.00236
AGCCACGA	-0.197
CAGGAAGC	0.055
ATTTCTCG	0.187
CGGGTGAG	-0.241
GTACGCGA	-0.0524
CCAATGCC	-0.196
ATCTACAG	0.152
ATGGTAGC	-0.0432

Single results of other studies
Substance	target	test	test system	setting	scale	endpoint	result
PhoQ, residues 284 288 289 292 302 303 TYGVAM	PhoP, residues 12 14 15 18 19 NHFIF (Escherichia coli, UniProt P23836)	Sort-seq, refers to: YFP reporter	E. coli	PhoQ-PhoP variant library, with: 10 µM Mg2+	reference: high Mg2+ state, higher = stronger signaling	fold induction	20.8

For quick reference, copied from above (series 2):
Oligonucleotide	log2 enrichment
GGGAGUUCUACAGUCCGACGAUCCUGUGCUACACAUCGUAUGUACCGAAUCGGGGUUUUUUUGGGGAAAGGGGUUUUUUUGGGGAAAGUAUUAUGUUACGCCGUUCGGAUCUGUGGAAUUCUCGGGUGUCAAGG	-0.0975
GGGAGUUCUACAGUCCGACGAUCAGUCCUGUGCUACACAUCGUAUGUACCGAAUCGGGCCCCCGGCCCCCGGGGCCCCCGGAAAGUAUUAUGUUACGCCGUUCGGAUCUGCACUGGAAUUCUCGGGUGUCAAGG	-1.87
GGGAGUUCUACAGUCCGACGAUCAGUCCUGUGCUACACAUCGUAUGUACCGAAUCGGUUUUUGGUUUUUGGGGUUUUUGGAAAGUAUUAUGUUACGCCGUUCGGAUCUGCACUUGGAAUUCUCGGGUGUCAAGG	-1.41
